Assay results collected from several papers.
Protocols differ between the studies behind these lines. “And” joins repeats or separate records; there may be more than shown. ± gives the spread as reported. Converted amounts (≈) assume the structure as drawn.

COC1OC(C)C(OC2OC(C)C(O)C(OC3OC(C)C(O)C(OS(=O)(=O)O)C3OS(=O)(=O)O)C2OS(=O)(=O)O)C(OS(=O)(=O)O)C1OS(=O)(=O)O (centres unmarked) — thrombin time prolongation (human plasma; 128 µg/mL; reference: control): 1 fold
COc1ccccc1-c1ccncc1C(=O)Nc1nnc(OCc2ccc(Cl)cc2)s1 — colony count (MDA-MB-436; 3 µM): 13 and 8.5
COC1OC(C)C(OS(=O)(=O)O)C(OC2OC(C)C(OS(=O)(=O)O)C(OS(=O)(=O)O)C2OS(=O)(=O)O)C1OS(=O)(=O)O (centres unmarked) — thrombin time prolongation (human plasma; 128 µg/mL; reference: control): 0.9 fold
COC1CN([C@H]2CC[C@H]([C@@]3(C)Oc4c(Cl)cc(C(=O)NCc5c(SC)cc(C)[nH]c5=O)c(C)c4O3)CC2)C1 — log2 fold change (RNA-seq, measured: RTN1 mouse homolog; mouse, HT-1376 xenograft, whole blood; dose not given; reference: vehicle): 0.226
CNS(=O)(=O)Nc1nccc(Cc2c(C)c3ccc(Oc4ncccc4F)cc3oc2=O)c1F — IC50 (HMC-1-8; cell viability, CellTiter-Glo; 7 days): 10.1 nM
COC1OC(C)C(OC2OC(C)C(O)C(OC3OC(C)C(OC4OC(C)C(O)C(OC5OC(C)C(OC6OC(C)C(O)C(OC7OC(C)C(OC8OC(C)C(O)C(OC9OC(C)C(O)C(OS(=O)(=O)O)C9OS(=O)(=O)O)C8OS(=O)(=O)O)C(OS(=O)(=O)O)C7OS(=O)(=O)O)C6OS(=O)(=O)O)C(OS(=O)(=O)O)C5OS(=O)(=O)O)C4OS(=O)(=O)O)C(OS(=O)(=O)O)C3OS(=O)(=O)O)C2OS(=O)(=O)O)C(OS(=O)(=O)O)C1OS(=O)(=O)O (centres unmarked) — thrombin time (human plasma; 128 µg/mL): 9.6 ± 0.6 s
CN1CCCNC(=O)c2cccc(c2)C(=O)NCCCN(C)CCCNc2cccc3c2C(=O)c2cccc(c2C3=O)NCCC1 — log2 fold change (SAS; RNA-Seq, measured: RAB28 mRNA; 1 µM, 6 h; reference: untreated cells): -1.14
COc1cc2c(NC3CCN(C(C)C)CC3)cc(N3CCOCC3)nc2cc1OCCCN1CCCC1 — normalised protein abundance (TMT quantitative proteomics, measured: MFGE8; 5xFAD mice, hippocampus; dose not given): -0.06 and 0.217 and 0.149 and 0.0537 and 0.198 and 0.0338 and 0.0937 and -0.096
C=CC(=O)Nc1cccc(Cn2ncc3cnc(Nc4cnn(CCOC)c4)nc32)c1 — percent of control (PIK4CB human; binding, KINOMEscan; 100 nM; lower = stronger binding): 72%
Cc1cccc2c1N(C(=O)n1ccnn1)CC2 — germination rate (Arabidopsis thaliana; kai2 mutant; 10 µM, 72 h): 70.2%
CCN(CC)CC(=O)Nc1cccc(-n2cc(-c3ccc4ccc(-c5cn(-c6cccc(NC(=O)CN(CC)CC)c6)nn5)cc4c3)nn2)c1 — fold regulation (RCC4; PCR angiogenesis array, measured: TEK; 5 x IC50, 6 h, normoxia; reference: untreated): -1.53 fold
Cc1ncsc1-c1ccc(C(C)NC(=O)C2CC(O)CN2C(=O)C(NC(=O)CCCCCCCCCCN2CCCC(Nc3ncc(Cl)c(Nc4ccccc4S(=O)(=O)C(C)C)n3)C2)C(C)(C)C)cc1 (centres unmarked) — log2 fold change (22Rv1; RNA-seq, measured: SEMA4B mRNA; concentration not given; reference: DMSO): -1
c1ccc(-c2n[nH]cc2-c2ccnc3ccccc23)nc1 — log2 fold change (CDC15 (Candida albicans); kinase binding, MIB/MS competition; Candida albicans lysate; 10 µM; reference: DMSO): -0.23
COC1OC(C)C(O)C(OC2OC(C)C(O)C(OC3OC(C)C(O)C(OC4OC(C)C(O)C(OC5OC(C)C(O)C(OC6OC(C)C(O)C(OC7OC(C)C(O)C(OC8OC(C)C(O)C(OC9OC(C)C(O)C(OC%10OC(C)C(O)C(OC%11OC(C)C(O)C(OS(=O)(=O)O)C%11OS(=O)(=O)O)C%10OS(=O)(=O)O)C9OS(=O)(=O)O)C8OS(=O)(=O)O)C7OS(=O)(=O)O)C6OS(=O)(=O)O)C5OS(=O)(=O)O)C4OS(=O)(=O)O)C3OS(=O)(=O)O)C2OS(=O)(=O)O)C1OS(=O)(=O)O (centres unmarked) — thrombin time (human plasma; 128 µg/mL): 9.2 s
Nc1ncc(-c2cc(-c3cnn(CC(F)(F)F)c3)ncc2F)nc1C(=O)NC1CNCC(F)C1 (centres unmarked) — remaining binding (HIPK3; KINOMEscan; 1 µM; reference: DMSO control): 100%
COC1OC(C)C(OC2OC(C)C(OS(=O)(=O)O)C(OS(=O)(=O)O)C2O)C(OS(=O)(=O)O)C1O (centres unmarked) — thrombin time prolongation (human plasma; 128 µg/mL; reference: control): 0.9 fold
COc1cc(O)ccc1CCC(c1ccc(O)cc1)c1cc2c(c(C)c1O)OC(c1ccc(O)cc1)CC2 (mixture of isomers) — amount (measured: 15-HEPE; human whole blood; 0.3 µM, with: Escherichia coli): 169 ± 71 pg/mL blood
C=C(NC(=O)c1csc(-c2nc3c(cc2O)-c2nc(cs2)C(=O)NC(C(C)O)C(=O)NC(=C(C)OC)c2nc(cs2)C(=O)NC2c4nc(cs4)C(=O)NC(COC(=O)c4c5c6c(cccc6n4O)COC(=O)C(OC4CC(C)(O)C(N(C)C)C(C)O4)C2OC5)c2nc-3cs2)n1)C(N)=O (centres unmarked) — MIC90 (Enterococcus faecium; microbial growth; clinical isolate): 0.0312 µg/mL (≈ 0.0217 µM)
C=CC(=O)N1[C@@H](c2ccc3c(c2)OCO3)c2[nH]c3ccccc3c2C[C@H]1C(=O)N1CCN(C)CC1 — relative co-enrichment (human cyclin E1 wild type-3xFLAG:CDK2; co-IP with TMT proteomics, measured: SNRPD3; concentration not given, P62318; reference: wild type DMSO): 100%
CC(C)c1ccc(N(C)c2ccc3c(c2)OCC[C@H]3CNc2cnccc2C(=O)O)cc1 — IC50 (HMCB; cell viability, CellTiter-Glo; 7 days): 11.1 nM

Some of these lines once more:
CC(C)c1ccc(N(C)c2ccc3c(c2)OCC[C@H]3CNc2cnccc2C(=O)O)cc1 — IC50 (HMCB; cell viability, CellTiter-Glo; 7 days): 11.1 nM
